Assay results from different studies.
Protocols differ between the studies behind these lines. Values joined by “and” are separate records of one study, mostly repeats; a detail may differ. ± gives the spread as reported.

SMILES	test	test system	conditions	scale	endpoint	value
O=C([O-])CN1CCN(CC(=O)[O-])CCN(CC(=O)NCC2CCC(C(=O)N[C@@H](Cc3ccc4ccccc4c3)C(=O)NCCCC[C@H](NC(=O)N[C@@H](CCC(=O)O)C(=O)O)C(=O)O)CC2)CCN(CC(=O)[O-])CC1.[177Lu+3] (stereo partly shown)	99mTc-DTPA plasma clearance	human	after 3 cycles	–	mean measured GFR	45 mL/min/1.73 m2
CN1CC[C@@H](c2c(O)cc(O)c3c(=O)cc(-c4ccc(C(F)(F)F)cc4Cl)oc23)[C@@H]1CO	refers to: Sepsis	relapsed AML	oral, 200 mg, grade 3-4, intermittent dosing	–	patients with adverse event	20%
CO[C@H]1C[C@@H]2CC[C@@H](C)[C@@](O)(O2)C(=O)C(=O)N2CCCC[C@H]2C(=O)O[C@H]([C@H](C)C[C@@H]2CC[C@@H](OC(=O)NCCOCCOCCOCCOCCOCCOCCOCCOCCC(=O)N3CCc4cc(Cn5nc(-c6ccc7oc(N)nc7c6)c6c(N)ncnc65)ccc4C3)[C@H](OC)C2)C[C@@H](O)[C@H](C)/C=C(\C)[C@@H](O)[C@@H](OC)C(=O)[C@H](C)C[C@H](C)/C=C/C=C/C=C/1C	–	patients with advanced solid tumours	intravenous, 16 mg weekly, any grade	–	fatigue incidence	50%
[2H]C([2H])([18F])[C@]([2H])(N)C(=O)O	PET	athymic nude mice, U-87 MG	dose not given, 60 min post-injection	baseline: tumour over muscle	tumour-to-muscle ratio	1.09 ± 0.11
CCc1ccc(CC/C=C/c2ccc3c(c2)C(=O)CC3)cc1	–	Sprague-Dawley rat, female, serum	oral, 450 mg/kg/day, 14 days	–	creatinine	22.7 µM
Oc1ccc(CSCc2ccc(O)cc2)cc1	–	ICR mice male	oral, 3000 mg/kg, day 15, acute toxicity	baseline: day 1	body weight gain	6.87 ± 1 g
O=C(Nc1ccccc1)C1CCN(C(=O)Oc2cccnc2)CC1	psychotropic effects VAS	healthy women	60 mg	baseline: pre-dose baseline, direction not given	change in Thoughts score	24
COc1cccc(Oc2ccccc2NC(=O)CNC(=O)c2cccc3ccccc23)c1	–	esterase-deficient SCID mice, male	oral, 40 mg/kg/day, 14 days, toxicity study	–	total bilirubin	0.1 mg/dL
C[C@]1(CO)Cc2ncn(-c3ccc(C#N)c(Cl)c3)c2C(=O)O1	–	human, plasma	80 mg single dose, geometric mean	–	AUC(0-inf)	17.3 µM·h
COc1cc2c(Oc3ccc4[nH]c(C)cc4c3F)ccnc2cc1OCC1(N)CC1	–	paediatric recurrent refractory sarcoma	concentration not given, whole group	–	grade 1 or 2 Epistaxis	23.5%
OC(c1ccc(F)cc1)C(F)(F)CCN1CCC(O)(c2ccc(Cl)cc2)CC1 (racemic)	–	human liver microsomes	5 µM, up to 60 min, added: with or without NADPH	–	metabolic stability	stable
O=C(O)C(O)(c1cccs1)c1cccs1	refers to: metabolite	human, plasma	oral, 2 mg once daily, 5 days, median	–	dose-normalised free Cmax	0.0115 (ng/mL)/mg
CC(C)C[C@H](NC(=O)[C@H](C)NC(=O)[C@@H](NC(=O)[C@H](CCCNC(=N)N)NC(=O)[C@H](CC(C)C)NC(=O)[C@H](Cc1c[nH]c2ccccc12)NC(=O)[C@@H]1CCCN1C(=O)[C@@H](N)CCCCN)C(C)C)C(=O)N[C@@H](CS)C(=O)N1CCC[C@H]1C(=O)NCC(=O)O	–	sheep red blood cells	64 µM, 1 h, 37 °C	–	hemolysis	1.07% and 0.57% and 1.04%

Some of these lines once more:
SMILES	test	test system	conditions	scale	endpoint	value
[2H]C([2H])([18F])[C@]([2H])(N)C(=O)O	PET	athymic nude mice, U-87 MG	dose not given, 60 min post-injection	baseline: tumour over muscle	tumour-to-muscle ratio	1.09 ± 0.11
